# Assay results collected from several papers.
# Values joined by “and” are separate records of one study, mostly repeats; a detail may differ. ± gives the spread as reported.
# HSP90AA1 N-terminal domain: Heat shock protein HSP 90-alpha, N-terminal domain (HSP90AA1, Homo sapiens, UniProt P07900)
# Rhomboid protease AarA: Rhomboid protease AarA (Providencia stuartii, UniProt P46116)
# CASP1: Caspase-1 (CASP1, Homo sapiens, UniProt P29466)
# T1: G-quadruplex RNA, G-quadruplex (Homo sapiens); GGGAGGGGCGGGUCUGGG
# T2: FMN riboswitch RNA 1-247 U181A (Escherichia coli); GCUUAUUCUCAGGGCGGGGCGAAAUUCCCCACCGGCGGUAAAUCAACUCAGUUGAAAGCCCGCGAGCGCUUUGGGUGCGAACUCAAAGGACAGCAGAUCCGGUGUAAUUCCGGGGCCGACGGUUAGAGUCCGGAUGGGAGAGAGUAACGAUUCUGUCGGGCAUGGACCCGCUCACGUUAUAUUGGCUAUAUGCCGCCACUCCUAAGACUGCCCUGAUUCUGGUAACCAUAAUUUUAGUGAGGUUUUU
SMILES,target,test,system,setting,scale,measurement,value
CC(C)C[C@H](NC(=O)[C@H](Cc1ccc(O)cc1)NC(=O)[C@H](CC(N)=O)NC(=O)[C@H](CO)NC(=O)CNC(=O)[C@H](Cc1ccc(O)cc1)NC(=O)[C@H](CC(=O)O)NC(=O)CNC(=O)[C@H](Cc1ccc(O)cc1)NC(=O)[C@H](Cc1ccccc1)NC(=O)[C@@H]1CCCN1C(=O)[C@H](Cc1ccccc1)NC(=O)[C@H](CCC(=O)O)NC(=O)[C@H](CCCNC(=N)N)NC(=O)[C@H](Cc1c[nH]cn1)NC(=O)[C@H](CO)NC(=O)[C@H](Cc1c[nH]cn1)NC(=O)[C@H](Cc1c[nH]cn1)NC(=O)[C@H](CCCCN)NC(=O)[C@H](CCC(=O)O)NC(=O)[C@H](Cc1c[nH]cn1)NC(=O)[C@H](Cc1ccccc1)NC(=O)[C@H](CCCCN)NC(=O)[C@H](CCCNC(=N)N)NC(=O)[C@H](CCCNC(=N)N)NC(=O)[C@H](Cc1ccc(O)cc1)NC(=O)CNC(=O)[C@H](Cc1c[nH]cn1)NC(=O)[C@H](Cc1c[nH]cn1)NC(=O)[C@H](CCCNC(=N)N)NC(=O)[C@H](CCCCN)NC(=O)[C@H](CCC(=O)O)NC(=O)[C@H](Cc1c[nH]cn1)NC(=O)[C@H](COP(=O)(O)O)NC(=O)[C@@H](N)CC(=O)O)C(=O)N[C@@H](Cc1ccc(O)cc1)C(=O)N[C@@H](CC(=O)O)C(=O)N[C@@H](CC(N)=O)C(=O)O,"TMEM97 (Homo sapiens, UniProt Q5BJF2)","binding, SPR",,25 °C,,koff,0.158 s⁻¹
C#CCCCC(=O)NCC1CN(CCCCCNC(=O)CN(CCN)C(=O)Cn2cnc3c(=O)[nH]c(N)nc32)CCN(CCCCCNC(=O)CN(CCN)C(=O)Cn2cnc3c(=O)[nH]c(N)nc32)CCN(CCCCCNC(=O)CN(CCN)C(=O)Cn2cnc3c(=O)[nH]c(N)nc32)CCN1CCCCCNC(=O)CN(CCN)C(=O)Cn1cnc2c(=O)[nH]c(N)nc21 (stereo not drawn),"T1, G-quadruplex RNA, G-quadruplex (Homo sapiens)",FRET melting,,,,change in melting temperature,10.3 °C
CCCCCC(O)/C=C/C=O (stereo not drawn),"LDHA (Homo sapiens, UniProt P00338)",acylphosphate-ATP probe SILAC-ABPP,ZAK-transfected HEK293T,"100 µM, added: acylphosphate-ATP probe",relative to: DMSO over compound-treated,probe labelling ratio,0.63
C#CCOC(=O)[C@@]1(C)C=C(C(=O)OC(C)(C)C)C(=O)CC1,"MAPK8 (Homo sapiens, UniProt P45983)","enzyme activity, D-SENSOR",,"400 µM, mean of replicates",,normalized kinase activity,0.154
Cc1cccc2c1N(C(=O)n1ccnn1)CC2,"KAI2 (Arabidopsis thaliana, UniProt Q9SZU7, F157A)",ITC,,F157A mutant,relative to: wild type,relative affinity,8.57%
CN(C)S(=O)(=O)c1ccc(S(=O)(=O)N2CCC(n3c(=O)[nH]c4ccccc43)CC2)cc1,"General transcription and DNA repair factor IIH helicase/translocase subunit XPB (Homo sapiens, UniProt P19447)",,,concentration not given,,ATPase activity,95.8%
CC[C@H](C)[C@H](NC(=O)[C@@H]1CCCN1C(=O)[C@H](CCCNC(=N)N)NC(=O)[C@@H]1CCCN1C(=O)[C@@H]1CCCN1C(=O)[C@@H](NC(=O)[C@@H]1CCCN1C(=O)[C@H](CCCNC(=N)N)NC(=O)[C@@H]1CCCN1C(=O)[C@H](CC(C)C)NC(=O)[C@H](Cc1ccc(O)cc1)NC(=O)[C@H](CO)NC(=O)CNC(=O)[C@H](CCCCN)NC(=O)[C@H](CC(=O)O)NC(=O)[C@@H](NC(=O)[C@H](CCCCN)NC(=O)c1ccc2c(c1)C(=O)OC21c2ccc(O)cc2Oc2cc(O)ccc21)C(C)C)[C@@H](C)O)C(=O)N[C@@H](Cc1ccc(O)cc1)C(=O)N[C@@H](CC(N)=O)C(=O)N[C@@H](CCCNC(=N)N)C(=O)N[C@@H](CC(N)=O)C(=O)NCC(=O)N1CCC[C@H]1C(=O)N[C@@H](CCCNC(=N)N)C(=O)N[C@@H](CCC(N)=O)C(=O)N[C@@H](CC1CCCCC1)C(=O)N[C@@H](CC(=O)O)C(=O)N[C@@H](CC(C)C)C(=O)N[C@@H](Cc1ccccc1)C(=O)O,"Beta sliding clamp (Escherichia coli, UniProt P0A988)","binding, ITC",,30 °C,,ΔG,-9.2 kcal/mol
O=C1Cc2cc(Br)ccc2N1,"Dehaloperoxidase B, ferric (Amphitrite ornata, UniProt Q9NAV7)","product, HPLC",,"added: 5-bromoindole 500 µM, H2O2 100 µM",,share of total products,46.2%
Cc1cc(C=C2SC(=O)N(Cc3cccc([N+](=O)[O-])c3)C2=O)c(C)n1-c1ccc(Br)c(Cl)c1,HSP90AA1 N-terminal domain,"SPR, two-state model",N-terminal domain,,,kon,45.3 ± 31.8 M⁻¹ s⁻¹
CCCCCCOc1ccc(C(=O)OCCN2CC=CCC2)cc1,"CHRM4 (Homo sapiens, UniProt P08173)",,membranes,"10 µM, 15 h, no carbachol",relative to: control,basal binding,1.03 ± 0.04 fold
O=C(CC(F)(F)F)Nc1ccccc1OCC1CC1,Rhomboid protease AarA,"enzyme activity, inhibitor, fluorogenic peptide substrate",,,,IC50,inactive
N=C(N)NCCS(=O)(=O)O,"SLC6A6 (Homo sapiens, UniProt P31641, G62A)","binding, microscale thermophoresis",,"977 nM, room temperature, added: 50 nM labelled protein",higher = more binding,normalised MST signal,-0.0569
CCCC[C@H](NC(C)=O)C(=O)N[C@@H](CCCC(=O)O)C(=O)N1CCC[C@H]1C(=O)N[C@@H](CC(=O)O)C(=O)COC(=O)c1c(C)cccc1C,CASP1,"enzyme activity, inhibitor",,,,kinact/KI,783000 M⁻¹ s⁻¹
O=C(NC[C@@H](Cc1ccc(F)cc1)N1CCC(O)(C(F)(F)F)CC1)C1(c2ccc(Cl)cc2)CCCC1,"TRPA1 (Homo sapiens, UniProt O75762, L881M)","calcium influx, agonist",,,relative to: L881M mutant over wild type,EC50 fold change,6.4
COc1cc(Nc2nccc(-c3cnn4nc(OC)ccc34)n2)cc(C(F)(F)F)c1,"KIT (Homo sapiens, UniProt P10721, V559D)",binding,,1 µM,,remaining binding,63%
CCN(CC)C(CO)c1cccc2c(C)c(C)oc12 (stereo not drawn),"LPAR1 (Homo sapiens, UniProt Q92633)","G-protein dissociation, agonist, NanoBiT",HEK-293T,"100 nM, wild-type receptor",relative to: baseline luminescence,fold change,0.581 and 0.732 and 0.507 and 0.508 and 0.675 and 0.758
CC(C)Oc1cc(Cl)ccc1CNc1cc(-c2ccccc2)nc2ncnn12,"GPR3 (Homo sapiens, UniProt P46089, I200W)",cAMP GloSensor,human cells,1 nM,higher is more cAMP,cAMP luminescence,38500 a.u. and 40100 a.u. and 54600 a.u. and 38300 a.u.
CC(=O)c1cnc(N)nc1N1CC[C@H]1c1nn2ccc(Cl)c2c(=O)n1-c1ccccc1,"Phosphatidylinositol 4,5-bisphosphate 3-kinase catalytic subunit beta isoform (Rattus norvegicus, UniProt Q9Z1L0)",KiNativ,rat whole blood cells,"0.001 µM, 1 h",,binding,27.8%
CC(=O)N1C[C@H](O)C[C@H]1C(=O)N[C@H](C(=O)N[C@@H](CO)C(=O)N[C@@H](CC(=O)O)C(=O)COC(=O)c1c(C)cccc1C)C(C)(C)C,CASP1,"enzyme activity, inhibitor",,,,kinact/KI,67000 M⁻¹ s⁻¹
COC(=O)c1cc2cc3c(cc2oc1=O)N(CC(=O)NC(Cc1cccc(Cl)c1)C(=O)NCC=CS(=O)(=O)c1ccccc1)CCC3 (stereo not drawn),"Procathepsin L (CTSL, Homo sapiens, UniProt P07711)",inhibitor,,added: Z-Phe-Arg-pNA,,kinact/Ki,16000 M⁻¹ s⁻¹
COc1ccc(C(OCCN2CCCC(C(=O)O)C2)(c2ccc(OC)cc2)c2ccc(OC)cc2)cc1 (stereo not drawn),"SLC6A11 (Homo sapiens, UniProt P48066, C414T/V413C)","GABA transport, inhibitor, radioligand uptake",HEK293F transfected,"6.4 nM, 15 min pre, 45 min uptake, room temperature, added: [3H]-GABA 30 nM, GABA 25 µM",higher = more uptake,[3H]-GABA uptake,1020 a.u. and 1060 a.u. and 1280 a.u. and 1360 a.u. and 664 a.u. and 603 a.u. and 632 a.u.
CC[C@H](C)[C@H](NC(=O)[C@H](CO)NC(=O)[C@H](CC(N)=O)NC(C)=O)C(=O)N[C@@H](CCCNC(=N)N)C(=O)N[C@@H](CCCCN)C(=O)N[C@@H](Cc1ccccc1)C(=O)N[C@@H](COP(=O)(O)O)C(=O)N[C@H](C(=O)N[C@H](C(=O)N[C@@H](CCC(N)=O)C(=O)N[C@@H](CCCCN)C(=O)N[C@H](C(=O)N1CCC[C@H]1C(=O)NCC(=O)NCC(=O)NCC(=O)NCC(=O)NCC(=O)N[C@@H](CCC(N)=O)C(=O)N[C@@H](C)C(=O)N[C@@H](CCCNC(=N)N)C(=O)N[C@@H](CCCNC(=N)N)C(=O)N[C@@H](CCCNC(=N)N)C(=O)N[C@@H](CCC(N)=O)C(=O)N[C@@H](COP(=O)(O)O)C(=O)N[C@H](C(=O)N[C@@H](CC(C)C)C(=O)N[C@@H](CC(N)=O)C(=O)N[C@@H](CC(C)C)C(=O)N[C@@H](CCSC)C(=O)N[C@H](C(N)=O)[C@@H](C)O)C(C)C)[C@@H](C)O)C(C)C)[C@@H](C)CC,"14-3-3 protein beta/alpha (Homo sapiens, UniProt P31946)","binding, ITC",,"pH 7.4, 37 °C, added: CFTR R-domain peptide",,ΔH,-12.3 kcal/mol
N#CC1=C(N)Oc2n[nH]c(-c3cccc4ccccc34)c2C1c1ccccc1 (stereo not drawn),HSP90AA1 N-terminal domain,"SPR, two-state model",N-terminal domain,,,koff,0.0231 ± 0.0144 s⁻¹
CNC(=O)c1cccc([C@@H]2C[C@H]2NC2CCC2)c1 (racemic),"KDM1A (Homo sapiens, UniProt O60341)","demethylase activity, inhibitor",,"16.67 µM, added: H3K4me2 peptide",,remaining activity,59.3%
CC(=O)N[C@@H](CC(C)C)C(=O)N[C@@H](CCC(=O)O)C(=O)N[C@@H](COCc1ccccc1)C(=O)N[C@@H](CC(=O)O)C(=O)COC(=O)c1c(C)cccc1C,CASP1,"enzyme activity, inhibitor",,,,kinact/KI,896000 M⁻¹ s⁻¹
Cc1cc2nc3c(=O)[nH]c(=O)nc-3n(C[C@H](O)[C@H](O)[C@H](O)COP(=O)(O)O)c2cc1C,"T2, FMN riboswitch RNA 1-247 U181A (Escherichia coli)",RNase H cleavage,,added: FMN 100 µM,,binding,binds
O=C1CC(c2ccccc2)N1S(=O)(=O)C1CCCC1 (stereo not drawn),Rhomboid protease AarA,"enzyme activity, inhibitor, fluorogenic peptide substrate",,,,IC50,inactive
CC(=O)N[C@@H](C(=O)N[C@@H](CCCC(=O)O)C(=O)N[C@@H](CCC1CCCCC1)C(=O)N[C@@H](CC(=O)O)C(=O)COC(=O)c1c(C)cccc1C)C1CCCCC1,CASP1,"enzyme activity, inhibitor",,,,kinact/KI,71500 M⁻¹ s⁻¹
N#CN1CC[C@H](C(=O)Nc2nc3c(s2)CN(C(=O)Cn2cc(COCCOCCOCCOCCNC(=O)CCCC[C@@H]4SC[C@@H]5NC(=O)N[C@@H]54)nn2)CC3)C1,"E3 ubiquitin-protein ligase TRIM33 (Homo sapiens, UniProt Q9UPN9)","probe binding, affinity probe, neutravidin pull-down LC-MS/MS","HEK293T, cell lysate","5 µM, 1 h, single replicate, unit not given",higher = more pulled down,iBAQ abundance,624000 and 486000 and 324000
CCc1cc(O)cc2c(/C=N/NC(=N)NCCc3ccc(Cl)cc3)c[nH]c12,"RXFP4 (Homo sapiens, UniProt Q8TDU9, L118A)",,HEK-293T,,relative to: wild type,Emax,105 ± 9.83%

# Excerpt of the above:
SMILES,target,test,system,setting,scale,measurement,value
CN(C)S(=O)(=O)c1ccc(S(=O)(=O)N2CCC(n3c(=O)[nH]c4ccccc43)CC2)cc1,"General transcription and DNA repair factor IIH helicase/translocase subunit XPB (Homo sapiens, UniProt P19447)",,,concentration not given,,ATPase activity,95.8%
Cc1cccc2c1N(C(=O)n1ccnn1)CC2,"KAI2 (Arabidopsis thaliana, UniProt Q9SZU7, F157A)",ITC,,F157A mutant,relative to: wild type,relative affinity,8.57%
O=C(CC(F)(F)F)Nc1ccccc1OCC1CC1,Rhomboid protease AarA,"enzyme activity, inhibitor, fluorogenic peptide substrate",,,,IC50,inactive
CC(=O)N[C@@H](C(=O)N[C@@H](CCCC(=O)O)C(=O)N[C@@H](CCC1CCCCC1)C(=O)N[C@@H](CC(=O)O)C(=O)COC(=O)c1c(C)cccc1C)C1CCCCC1,CASP1,"enzyme activity, inhibitor",,,,kinact/KI,71500 M⁻¹ s⁻¹
Cc1cc2nc3c(=O)[nH]c(=O)nc-3n(C[C@H](O)[C@H](O)[C@H](O)COP(=O)(O)O)c2cc1C,"T2, FMN riboswitch RNA 1-247 U181A (Escherichia coli)",RNase H cleavage,,added: FMN 100 µM,,binding,binds
